Published values collected from several papers.
Parts stem from different laboratories: compare values within a part only. Substitutions count along the parent as printed.

Series 1
Target: Histone acetyltransferase KAT6A, winged helix 2, GST fusion (KAT6A, Homo sapiens, UniProt Q92794, residues 85-181)
Method: protein binding microarray
Form: double-stranded DNA, one strand shown
Matrix: in vitro
Tested at: not given
Notes: 8-mer, flanks averaged, mean of 2 arrays, mostly near background
Reference: not given
Reading: higher = stronger binding
Construct (chain): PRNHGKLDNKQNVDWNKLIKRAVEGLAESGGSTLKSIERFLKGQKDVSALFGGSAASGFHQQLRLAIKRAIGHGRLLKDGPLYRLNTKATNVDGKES
Sequence	E-score
AATTTGTG	0.103
AAACTACG	-0.0433
GCAGGATA	-0.0414
CCCTCCGG	0.186
AAAAAGCT	0.0425
AAGGATAC	-0.0893
TAGGCCAA	0.0384
AAATATAG	0.0948
AGTTAGCG	0.0504
CTCACAAA	0.0725
ATGGGCTG	-0.0949
ACTAATAT	-0.081
CTATCATC	0.0926
GTCATCGA	0.0124
AACACGGT	-0.0386
GGAGGGAA	0.108
CTACCTAG	-0.206
ACTAGGGG	-0.122
AAAATTCT	-0.0171
CAACGCAA	0.114
AGGTTGAA	0.0742
ATCCAAGC	-0.109
CGTAGATA	-0.116
CGCACCTA	0.0404
ATATGCAC	-0.0796

Series 2
Target: Interferon regulatory factor 3, full length, phosphomimetic (IRF3, Homo sapiens, UniProt Q14653, residues 1-427, S386D/S396D/S398D/S402D/T404D/S405D)
Method: protein-binding microarray
Form: double-stranded DNA, one strand shown
Matrix: in vitro
Tested at: 2540 nM top
Notes: 60-bp whole probe
Added: salmon DNA 0.4 mg/ml
Reference: random background probes
Reading: higher = stronger binding
All sequences stand within: GCCTAGCAC … GTCTTGATTCGCTTGACGCTGCTG
Residues (chain): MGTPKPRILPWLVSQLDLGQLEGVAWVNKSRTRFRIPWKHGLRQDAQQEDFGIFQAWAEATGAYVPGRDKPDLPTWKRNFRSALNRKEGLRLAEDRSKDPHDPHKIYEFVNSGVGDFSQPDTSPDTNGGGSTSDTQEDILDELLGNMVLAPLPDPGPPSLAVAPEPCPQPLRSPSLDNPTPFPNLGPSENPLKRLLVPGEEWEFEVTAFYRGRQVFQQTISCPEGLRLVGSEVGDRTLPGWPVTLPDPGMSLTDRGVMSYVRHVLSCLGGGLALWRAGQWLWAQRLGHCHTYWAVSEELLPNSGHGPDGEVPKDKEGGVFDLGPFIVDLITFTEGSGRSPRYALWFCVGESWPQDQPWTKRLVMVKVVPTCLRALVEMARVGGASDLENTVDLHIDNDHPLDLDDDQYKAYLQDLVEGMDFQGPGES
Sequence	fitted relative affinity
TACATTTTCCAAATGCCCCTGTGCTAG	3.12 z-score
TTCGATCTCAGACTGGATTAGTGCTAG	0.479 z-score
TCAGTTTTTACTTTCTGACTGTGCTAG	2.75 z-score
TTCTGAATGCCCTCTAACTTCGTGCTA	-0.017 z-score
GACGGTATCGGGTTTCTGGACGTGCTA	2.42 z-score
TCATTTTTTTTTTTTGTACTGTGCTAG	1.24 z-score
TTACTTCCCAATAATCTTTTCGTGCTA	1.47 z-score
GACGGTCTCGAACTGGGGACGTGCTAG	0.249 z-score
GACGATTTCAGACTGGCGACGTGCTAG	1.03 z-score
GATGGTTTCGGTATCGGGACGTGCTAG	7.91 z-score
TATTTTATATGCTATGTACTGGTGCTA	0.432 z-score
TTATTTATAAATTATCTTTAAGTGCTA	0.445 z-score
CAAGTTTCTCCTTTCGGAATGTGCTAG	3.61 z-score
GTTGCTCTCTCACCACCTTCGTGCTAG	1.66 z-score
TCATTTTTCATTTTTTTACTGTGCTAG	2.85 z-score
GGCGGTATCCTACTGCTGACGTGCTAG	2.87 z-score
CATCATTGCCTATTTTTCCCCGTGCTA	0.49 z-score

Series 3
Target: Ras GTPase-activating protein-binding protein 1, full length (G3BP1, Homo sapiens, UniProt Q13283)
Sequence of UniProt Q13283 (whole entry, looked up): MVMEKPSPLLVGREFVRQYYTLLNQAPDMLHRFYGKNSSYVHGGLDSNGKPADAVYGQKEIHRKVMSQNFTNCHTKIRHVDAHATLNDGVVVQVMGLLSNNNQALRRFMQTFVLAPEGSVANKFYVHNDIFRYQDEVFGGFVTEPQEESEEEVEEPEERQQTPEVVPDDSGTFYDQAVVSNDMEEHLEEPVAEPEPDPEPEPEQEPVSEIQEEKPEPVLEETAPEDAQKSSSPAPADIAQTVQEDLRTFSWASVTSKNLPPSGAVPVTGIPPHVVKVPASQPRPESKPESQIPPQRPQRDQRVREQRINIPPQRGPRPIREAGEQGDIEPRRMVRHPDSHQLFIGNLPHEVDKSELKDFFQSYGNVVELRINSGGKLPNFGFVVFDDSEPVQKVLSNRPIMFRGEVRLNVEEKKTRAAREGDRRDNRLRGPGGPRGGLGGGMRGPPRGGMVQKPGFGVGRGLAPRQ
Method: RNA Bind-n-Seq
Form: RNA
Matrix: in vitro
Tested at: 200 nM
Notes: whole 134-nt RNA, ends assumed
Added: 150 mM KCl
Reference: input library
Reading: higher = stronger binding
All sequences stand within: GGGAGUUCUACAGUCCGACGAUC … UGGAAUUCUCGGGUGUCAAGG
Sequence	log2 enrichment
UCCUCAAGUCCUGUGCUACACAUCGUAUGUACCGAAUCGGAGGGGAGGAGGAAAGUAUUAUGUUACGCCGUUCGGAUCUGCACUUCCAGC	-0.4
CUCAAGUCCUGUGCUACACAUCGUAUGUACCGAAUCGGGGUUGGGUUGGUUGGGAAAGUAUUAUGUUACGCCGUUCGGAUCUGCACUUCC	0.579
CAAGUCCUGUGCUACACAUCGUAUGUACCGAAUCGGAAAAAAAGGUUUUUGGUGGAAAGUAUUAUGUUACGCCGUUCGGAUCUGCACUUC	-1.4
UAACUUUAGAGGAGGAUCUGAUGGAUAUGGCAGUGGACGUGGAUUUGGGGAUGGCUAUAAUGGGUAUGGAGGAGGACCUGGGGGUGGCAA	0.201
CAAGUCCUGUGCUACACAUCGUAUGUACCGAAUCGGGUUUGGGUUUGGGAAAGGGAAAGUAUUAUGUUACGCCGUUCGGAUCUGCACUUC	0.668
CAAGUCCUGUGCUACACAUCGUAUGUACCGAAUCGGUUUUUGGUUUUUUUGGAGGAAAGUAUUAUGUUACGCCGUUCGGAUCUGCACUUC	-0.737
CUCAAGUCCUGUGCUACACAUCGUAUGUACCGAAUCGGGUUGGUUGGGGUUGGAAAGUAUUAUGUUACGCCGUUCGGAUCUGCACUUCCA	0.136
AGUCCUGUGCUACACAUCGUAUGUACCGAAUCGGGGAAAGGGGUUUGGGGUUUGGGGAAAGUAUUAUGUUACGCCGUUCGGAUCUGCACU	0.488
UCCUGUGCUACACAUCGUAUGUACCGAAUCGGGGAAAGGGGAAAGGGGAAAAAAAGGGGAAAGUAUUAUGUUACGCCGUUCGGAUCUGCA	0.605

Series 4
Target: CCNF, cyclin fold, Cln2 fusion (human)
Method: yeast growth competition, sequencing
Matrix: yeast
Notes: strong parent motif
Reference: not given
Reading: higher = stronger binding
Parent: SLBP docking peptide (human); ARYKRKLLINDFG; partner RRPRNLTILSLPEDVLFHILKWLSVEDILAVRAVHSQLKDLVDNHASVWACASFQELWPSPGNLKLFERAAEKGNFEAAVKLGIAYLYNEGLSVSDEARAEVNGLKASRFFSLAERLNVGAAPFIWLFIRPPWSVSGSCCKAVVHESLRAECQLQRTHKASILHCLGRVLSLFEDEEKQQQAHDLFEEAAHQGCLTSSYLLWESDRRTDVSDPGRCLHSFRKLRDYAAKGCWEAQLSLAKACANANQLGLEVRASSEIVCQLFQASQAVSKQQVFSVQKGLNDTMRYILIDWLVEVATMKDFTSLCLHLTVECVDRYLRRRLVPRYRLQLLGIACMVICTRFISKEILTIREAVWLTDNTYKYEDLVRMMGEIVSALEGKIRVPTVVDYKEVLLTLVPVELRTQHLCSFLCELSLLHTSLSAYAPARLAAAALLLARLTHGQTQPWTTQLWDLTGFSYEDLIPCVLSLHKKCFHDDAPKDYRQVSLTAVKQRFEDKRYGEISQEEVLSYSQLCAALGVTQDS
Change	normalised enrichment score
K4E	0.5
R5K L8F	0.871
R2N	2.73
R5S	1.93
K6M	1.55
L7N	1.25
F12D	1.14
K4S	1.58
F12L	2.34
F12T	0.1
Y3C	3.6
D11M	3.51
Y3I	2.08
G13W	1.65
A1Y	0.84
N10D	2.13
R5W	1.51
L7Q	1.24
K6L	2.08
L7K	0.284
A1N	1.51
L8H	1.21
L7T	0.849
L8S	0.963

A few entries again (series 1):
Sequence	E-score
GCAGGATA	-0.0414
AAGGATAC	-0.0893
ATGGGCTG	-0.0949
TAGGCCAA	0.0384
CTATCATC	0.0926
AAAAAGCT	0.0425
CGTAGATA	-0.116
ACTAGGGG	-0.122
CTACCTAG	-0.206
